# Results collected from several papers.
# Values joined by “and” are separate records of one study, mostly repeats; a detail may differ. Numbers after ± are the reported error.
# MAPK3: Mitogen-activated protein kinase 3 (MAPK3, Homo sapiens, UniProt P27361)
# Sequence of UniProt P27361 (whole entry, looked up): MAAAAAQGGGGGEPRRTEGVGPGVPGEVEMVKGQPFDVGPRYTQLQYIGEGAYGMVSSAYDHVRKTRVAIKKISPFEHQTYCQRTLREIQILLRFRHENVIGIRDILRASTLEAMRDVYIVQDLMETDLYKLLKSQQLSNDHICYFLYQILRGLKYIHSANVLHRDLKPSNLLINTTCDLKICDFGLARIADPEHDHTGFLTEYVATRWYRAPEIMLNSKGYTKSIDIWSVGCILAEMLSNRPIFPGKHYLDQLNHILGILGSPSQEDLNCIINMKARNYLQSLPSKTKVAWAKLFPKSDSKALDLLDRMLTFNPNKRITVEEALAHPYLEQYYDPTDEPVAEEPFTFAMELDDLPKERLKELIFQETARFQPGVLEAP
Compound,tested on,assay,system,conditions,scale,measurement,value
CC(C)(C)C(=O)OCOP(=O)(OCOC(=O)C(C)(C)C)C1CCCN(O)C1=O (stereo not shown),EKVX,,,,,log GI50,-6.18 log M
CC[C@H](C)[C@@H]1NC(=O)CNC(=O)[C@H](CC(=O)O)NC(=O)[C@H](CC(=O)O)NC(=O)[C@@H]2CSSC[C@@H]3NC(=O)[C@H](Cc4c[nH]cn4)NC(=O)[C@H](CCCNC(=N)N)NC(=O)[C@H](CCCNC(=N)N)NC(=O)[C@@H](NC(=O)[C@H](CO)NC(=O)[C@@H](N)Cc4c[nH]cn4)CSSC[C@H](NC(=O)[C@H](C)NC(=O)[C@H](Cc4c[nH]c5ccccc45)NC(=O)CNC(=O)[C@H](CSSC[C@@H](C(=O)N[C@@H](CCCCN)C(=O)N4CCC[C@H]4C(=O)N[C@@H](CC(C)C)C(=O)N[C@@H](CCCNC(=N)N)C(=O)N[C@H](C(=O)O)C(C)C)NC1=O)NC(=O)[C@H](CCCNC(=N)N)NC(=O)[C@H](CCCNC(=N)N)NC(=O)[C@H](CC(N)=O)NC(=O)[C@H](CCC(=O)O)NC(=O)[C@H](Cc1c[nH]cn1)NC3=O)C(=O)N[C@@H](Cc1ccc(O)cc1)C(=O)N2,hKv1.2 human,,,concentration not given,,ion current,no effect
CC(C)[C@H]1NC(=O)C[C@H]2/C=C/CCSSC[C@@H](NC1=O)C(=O)N[C@H](Cc1cccc3ccccc13)C(=O)NCC(=O)O2,MAPK3,"enzyme activity, inhibitor",,10 µM,,inhibition,4.8%
COc1ccccc1-c1n[nH]c2nc(N[C@H]3CC[C@H](NS(=O)(=O)CC(C)C)CC3)ncc12,CYC6 LINJ.32.3520,bead competition pull-down,Leishmania extract,10 µM,relative to: vehicle,relative captured amount,0.55
Cc1cc(O)cc(C)c1C[C@H](N)C(=O)N[C@H](CCCNC(=N)N)C(=O)N[C@@H](Cc1ccccc1)C(=O)N[C@@H](CCCCN)C(=O)N[C@H]1CC[C@H](NC(=O)[C@H](Cc2ccccc2)NC(=O)[C@H](CC2CCCCC2)NC[C@@H]2Cc3ccccc3CN2C(=O)[C@@H](N)Cc2ccc(O)cc2)CC1,opioid receptor,"smooth muscle contraction, agonist",mouse vas deferens,,,IC50,98.3 ± 2.4 nM
Nc1ncc(-c2cc(-c3cnn(CC(F)(F)F)c3)ncc2F)nc1C(=O)NC1CNCC(F)C1 (stereo not shown),GCN2 kinase domain 2 S808G,KINOMEscan,,1 µM,,remaining binding,90%
CC[C@H](C)[C@@H]1NC(=O)[C@H](Cc2ccc(O)cc2)NC(=O)[C@@H](N)CSSC[C@@H](C(=O)N2CCC[C@H]2C(=O)N2CCC[C@H]2C(=O)NCC(N)=O)NC(=O)[C@H](CC(N)=O)NC(=O)[C@H](CCC(N)=O)NC1=O,titi monkey oxytocin receptor,"membrane hyperpolarisation, FMP blue membrane potential dye",CHO cells,,,IC50,0.3 nM
Cc1cc(C(=O)Nc2nc3cccc(C)c3n2[C@H]2CCCCN(C(=O)/C=C/CN(C)C)C2)ccn1,Trypanosoma brucei CLK1 wild type,differential scanning fluorimetry,,,,melting temperature,53.8 °C and 53.9 °C
O=C1NC2(CC2)COc2ncc(F)cc2[C@H]2COCCN2c2ccn3ncc1c3n2,,,"Sprague-Dawley rat, female, thymus","oral, 10 mg/kg/day, 4 weeks dosing, end of recovery",,organ-to-brain weight ratio,20.6 ± 5.24%
O=C1NC(=O)c2c1c1cc(F)c[n+]3c1c1c2c2cc(O)ccc2[n]1[Ru-4]312([N]=C=S)[S+]3CC[S+]1CC[S+]2CC3 (stereo not shown),"Mitogen-activated protein kinase 1 (Mapk1, Mus musculus, UniProt P63085)",enzyme activity,,"100 nM, mouse enzyme, together with: 10 µM ATP",relative to: untreated,remaining activity,5%
C[C@@H]1NC(=O)[C@H](CCCNC(=N)N)NC(=O)[C@H](Cc2ccc3ccccc3c2)NC(=O)[C@H]2CCCCN2C(=O)[C@@H]([C@H](C)O)NC(=O)[C@H](Cc2ccc(F)cc2)NC(=O)[C@@H](Cc2ccc(F)cc2)NC(=O)c2cc3cc(c2)C(=O)NC[C@H](NC(=O)[C@@H](Cc2ccccc2)NC1=O)C(=O)N[C@@H](Cc1ccccc1)C(=O)N[C@@H](Cc1ccc2ccccc2c1)C(=O)N[C@@H](CCCNC(=N)N)C(=O)N[C@@H](CCCNC(=N)N)C(=O)N[C@@H](CCCNC(=N)N)C(=O)N[C@@H](CCCNC(=N)N)C(=O)N[C@H](C(=O)N[C@@H](CCCCN)C(N)=O)CNC3=O,Pin1 human,"inhibitor, Western blot",HeLa,"about 1 µM, plateau level",relative to: untreated,PML protein level,3.3 fold
Cc1ccc2c(c1)nc(NC(=O)c1cccc(C(F)(F)F)c1)n2[C@H]1CC[C@H](N)CC1,Trypanosoma brucei CLK1 wild type,differential scanning fluorimetry,,,,melting temperature,41.3 °C and 41.4 °C and 41.2 °C
CCCCCCCCCCCC(=O)C(C)C(=O)N1CCC[C@H]1C(=O)NC(C)(C)C(=O)NC(C)(C)C(=O)NC(C)(C)C(=O)N[C@](C)(CC)C(=O)NCCC(=O)N[C@@H](C)C(=O)N[C@](C)(CC)C(=O)N[C@@H](C)C(=O)N[C@@H](CC(C)C)C(=O)N[C@](C)(CC)C(=O)NCCC(=O)N[C@@H](C)C(=O)N[C@](C)(CC)C(=O)NCCC(=O)N[C@@H](C)C(=O)NC(C)(C)C(=O)NC(C)(C)C(=O)NC(C)(C)C(=O)N[C@@H](C)C(=O)N[C@@H](CC(=O)O)C(=O)O (stereo partly shown),chitin,"pull-down, LC-MS",,"1 h, pH 7.0, 30 °C, together with: chitin 1 mg/mL",higher = more bound,bound compound (MS peak area),0 a.u.
CC[C@@H]1CN2CCc3c([nH]c4cccc(OC)c34)[C@@H]2C[C@@H]1/C(=C\OC)C(=O)OC,rabbit anti-mitragynine polyclonal IgG,"antigen binding, competitor, competitive indirect ELISA",15% methanol,"60 min antibody-standard, 90 min antibody-antigen incubation",,IC50,0.8 µg/mL
CN(C)[C@H]1C[C@@]23CC[C@@]4(O2)C(=CC[C@]2(C)[C@@H](c5ccc6ccncc6c5)CC[C@H]24)C=C3[C@@H](O)[C@@H]1O,MAPK3,"ATP probe labelling, inhibitor, KiNativ profiling",,1 µM,,inhibition,2.4%
Cc1cc(Oc2nc(N3CC[C@@H](c4ccncc4)C3)ncc2F)[nH]n1,PBMC,cell proliferation,,,,IC50,> 100000 nM
CC[C@H](C)[C@H](NC(=O)[C@H](CO)NC(=O)[C@H](Cc1ccc(O)cc1)NC(=O)[C@H](Cc1ccc(O)cc1)NC(=O)[C@H](CC(N)=O)NC(=O)CNC(=O)[C@H](CO)NC(=O)[C@H](Cc1ccc(O)cc1)NC(=O)[C@H](CO)NC(=O)[C@H](CO)NC(=O)[C@H](CC(N)=O)NC(=O)COCCOCCNC(=O)CN1CCN(CC(=O)O)CCN(CC(=O)O)CCN(CC(=O)O)CC1)C(=O)N[C@@H](CC(C)C)C(N)=O [copper-64 labelled],,dynamic PET,"tamoxifen-induced PDAC mouse model, pancreas","1.1 min, CLDN4-expressing tumours",,maximum pancreas uptake,25.6 %IA/cc
CSCC[C@H](NC(=O)CNC(=O)[C@H](CCSC)NC(=O)[C@H](CS)NC(=O)[C@@H](N)CS)C(=O)N[C@@H](CS)C(=O)NCC(=O)N[C@@H](CCCCN)C(=O)O,p38 MAPK (mouse),Western blot,RAW264.7,0.1 and 1 µg/mL,,p38/β-actin ratio,decreased
CCc1nn(C)c2nc(-c3ccc(C(=O)O)cc3)nc(NCc3ccccc3)c12,"PDE1, guinea pig",inhibitor,heart,,,IC50,600 nM
Cc1ccc2c(n1)c(-c1cccc(S(C)(=O)=O)c1)c(C)n2C/C(F)=C/CN,"L-type calcium channel, rat, Phenylalkylamine site","radioligand binding, Eurofins SafetyScreen",,10 µM,,inhibition,63%
COc1ccccc1-c1n[nH]c2nc(NC3CCN(C(=O)Cc4ccc(F)cc4F)CC3)ncc12,LMJF.25.1180,bead binding competition,Leishmania donovani extract,10 µM,relative to: vehicle,relative abundance,0.89
CC(C)OC(=O)OCOC(=O)C(CCC(=O)O)CP(=O)(OCOC(=O)OC(C)C)OCOC(=O)OC(C)C (stereo not shown),PSMA,PET,"mouse bearing 22Rv1 tumour, tumour","intravenous, 0.25 mg/kg, 15 min before, imaging at 60 min, together with: [18F]F-DCFPyL",relative to: vehicle,radioligand uptake,no effect

# Repeated from above:
Compound,tested on,assay,system,conditions,scale,measurement,value
Cc1cc(C(=O)Nc2nc3cccc(C)c3n2[C@H]2CCCCN(C(=O)/C=C/CN(C)C)C2)ccn1,Trypanosoma brucei CLK1 wild type,differential scanning fluorimetry,,,,melting temperature,53.8 °C and 53.9 °C
O=C1NC2(CC2)COc2ncc(F)cc2[C@H]2COCCN2c2ccn3ncc1c3n2,,,"Sprague-Dawley rat, female, thymus","oral, 10 mg/kg/day, 4 weeks dosing, end of recovery",,organ-to-brain weight ratio,20.6 ± 5.24%
O=C1NC(=O)c2c1c1cc(F)c[n+]3c1c1c2c2cc(O)ccc2[n]1[Ru-4]312([N]=C=S)[S+]3CC[S+]1CC[S+]2CC3 (stereo not shown),"Mitogen-activated protein kinase 1 (Mapk1, Mus musculus, UniProt P63085)",enzyme activity,,"100 nM, mouse enzyme, together with: 10 µM ATP",relative to: untreated,remaining activity,5%
